Published values collected from several papers.
Each line is one published result; not all experiments were run side by side. Several values in a cell are separate wells, animals, samples, runs or records. ± marks the error that the study gave.
DRD3: D(3) dopamine receptor (DRD3, Homo sapiens, UniProt P35462)
KCNQ3/KCNQ2: Voltage-gated potassium channel, KQT; KCNQ2(Kv7.2)/KCNQ3(Kv7.3) (KCNQ3/KCNQ2, Homo sapiens, UniProt O43525+O43526)
Genome polyprotein NS3 helicase domain: Genome polyprotein, NS3 helicase domain (Hepatitis C virus genotype 1b, UniProt Q9WMX2)

`O=C(CN1CCO[C@H](COc2cccnc2)C1)N1CCc2ccccc21` has an inhibition of 11.7% (DRD3; radioligand binding; concentration not given, added: [3H]N-methylspiperone).
For `COc1cc(C2NCCc3cc(O)c(O)cc32)cc(OC)c1O` (stereo not shown), the inhibition was 15.8 ± 2.98% (tyrosinase; enzyme activity, inhibitor; 100 µM, added: levodopa).
The inhibition of `COc1cccc(OC[C@@H]2CN(CC(=O)N3CCc4ccccc43)CCO2)c1` is reported as 15% (DRD3; radioligand binding; concentration not given, added: [3H]N-methylspiperone).
For `CN(C)C1CCN(CC#Cc2nn(C3CCCC3)c3nc(NCc4ccccc4)ncc23)C1` (stereo not shown), the inhibition was 5% (TAOK2 (Homo sapiens, UniProt Q9UL54); enzyme activity, inhibitor, Z'-LYTE; 10000 nM).
`CC(C)NCC(O)COc1cccc2ccccc12` (stereo not shown) has an inhibition of 9% (KCNQ3/KCNQ2; ion current, antagonist, SyncroPatch patch clamp; HEK293; 3 µM).
`CCS(=O)(=O)c1nc(S(=O)(=O)c2ccccc2Cl)c(N2CCN(C)C(=O)[C@H]2C)s1` gave an inhibition of 1.18% (DRD3; 10 µM).
With `Cl.O=C(CCCCCN1CCN(c2ccccc2-c2ccccc2)CC1)NC1CCCc2ccccc21` (stereo not shown) the inhibition was 0% (Genome polyprotein NS3 helicase domain; DNA binding, inhibitor; hepatitis C virus; 100 µM, added: Cy5-dT15 DNA).
`COc1cc(C(=O)NS(=O)(=O)c2ccccc2C)ccc1Cc1cn(C)c2ccc(NC(=O)OC3CCCC3)cc12` gave an inhibition of -7.2% and 39.8% and -0.192% and 18.9% and 61.6% (LRRC8A/LRRC8C (Homo sapiens, UniProt Q8IWT6+Q8TDW0, Y124F/Y126F); ion current, whole-cell patch clamp; HCT LRRC8-/- cells; 10 µM, +100 mV, Y124F/Y126F heteromers).
The inhibition of `COc1cccc(OC)c1OCCNCC1CSc2ccccc2O1` (stereo not shown) is reported as 0% (Genome polyprotein NS3 helicase domain; DNA binding, inhibitor; hepatitis C virus; 100 µM, added: Cy5-dT15 DNA).
`CCc1oc2ccccc2c1C(=O)c1cc(Br)c(O)c(Br)c1` gave an inhibition of 72.8% and 66.9% and 68.2% (SLC22A12 (Homo sapiens, UniProt Q96S37, H245A); uric acid uptake; HEK293T transfected with SLC22A12 H245A; 0.5 µM, 10 min, 37 °C, added: [14C]urate 200 µM).
With `Cl.O=C(O)C1=CCCN(CCON=C(c2ccccc2)c2ccccc2)C1` the inhibition was 1% (Genome polyprotein NS3 helicase domain; DNA binding, inhibitor; hepatitis C virus; 100 µM, added: Cy5-dT15 DNA).
For `Cc1ccc(C(=O)Nc2ccc3ccccc3c2)o1`, the inhibition was 5.13% (Asic1 (Rattus norvegicus, UniProt P55926); ion current, whole-cell patch-clamp; 10 µM, rASIC1a).
`CC12CC3CC(C)(C1)CC(N)(C3)C2` gave an inhibition of 3% (KCNQ3/KCNQ2; ion current, antagonist, SyncroPatch patch clamp; HEK293; 10 µM).
`CC(C)NCC(O)COc1ccc(COCCOC(C)C)cc1.CC(C)NCC(O)COc1ccc(COCCOC(C)C)cc1.O=C(O)/C=C/C(=O)O` (stereo not shown) gave an inhibition of 2% (Genome polyprotein NS3 helicase domain; DNA binding, inhibitor; hepatitis C virus; 100 µM, added: Cy5-dT15 DNA).
The inhibition of `CCc1nn(C)c2nc(-c3ccc(C(=O)O)cc3)nc(NCc3ccc(F)cc3)c12` is reported as 30.1% (PDE3A (Homo sapiens, UniProt Q14432); enzyme activity; 10 µM, added: [3H]cAMP).
With `COc1cc(SC)ccc1C(=O)N1CCC(Cc2ccccc2)CC1` the inhibition was 1% (Genome polyprotein NS3 helicase domain; DNA binding, inhibitor; hepatitis C virus; 100 µM, added: Cy5-dT15 DNA).
With `CC[C@@H]1[C@H](F)C(=O)N[C@@H]1COc1nccc2cc(C(N)=O)c(OC)cc12` the inhibition was -17.8% (MAP2K4 (Homo sapiens, UniProt P45985); ATP-site probe binding, ActivX profiling; THP-1 cell lysate; 0.04 mM, Lys1 site).
With `Cc1nc2sccn2c(=O)c1CCN1CCC(=C(c2ccc(F)cc2)c2ccc(F)cc2)CC1` the inhibition was 0% (Genome polyprotein NS3 helicase domain; DNA binding, inhibitor; hepatitis C virus; 100 µM, added: Cy5-dT15 DNA).
`CC/C(=N\NC(=O)NCc1cccc(O)c1)c1ccc(O)c(C)c1O` gave an inhibition of 0.3% (Protein kinase C beta type, isoform beta-II (PRKCB, Homo sapiens, UniProt P05771); kinase activity; 0.1 µM).

A few entries again:
With `COc1cc(SC)ccc1C(=O)N1CCC(Cc2ccccc2)CC1` the inhibition was 1% (Genome polyprotein NS3 helicase domain; DNA binding, inhibitor; hepatitis C virus; 100 µM, added: Cy5-dT15 DNA).
`CC(C)NCC(O)COc1ccc(COCCOC(C)C)cc1.CC(C)NCC(O)COc1ccc(COCCOC(C)C)cc1.O=C(O)/C=C/C(=O)O` (stereo not shown) gave an inhibition of 2% (Genome polyprotein NS3 helicase domain; DNA binding, inhibitor; hepatitis C virus; 100 µM, added: Cy5-dT15 DNA).
